# Published values gathered from unrelated publications.
# Protocols differ between the studies behind these lines. ± gives the spread as reported.
Compound,tested on,test,test system,setting,scale,quantity,value
COc1ccc(NC(=O)CSc2nc3c(oc4ccccc43)c(=O)n2Cc2ccco2)cc1Cl,Mus musculus,"gene silencing, high-content imaging",LDR reporter GFP cells,"30 h, retest, mean of two runs",,Emax,62%
COC1CN([C@H]2CC[C@H]([C@@]3(C)Oc4c(Cl)cc(C(=O)NCc5c(SC)cc(C)[nH]c5=O)c(C)c4O3)CC2)C1,,"RNA-seq, refers to: HAS1","human, whole blood","dose not given, 24 h",relative to: pretreatment baseline,log2 fold change,1.18
C=CC(=O)Nc1cccc(Cn2ncc3cnc(Nc4cnn(CCOC)c4)nc32)c1,human LZK,KINOMEscan,,100 nM,,binding,100%
O=C(N/N=C/c1cc[n+](Cc2ccccc2)c2ccccc12)c1ccc2ccc3ccc(C(=O)N/N=C/c4cc[n+](Cc5ccccc5)c5ccccc45)nc3c2n1,MYC parallel G4 DNA,FRET melting,,"1 µM, DNA 0.2 µM, added: duplex DNA competitor 10 µM",,ΔTm,9.2 ± 0.3 °C
CN1CCCNC(=O)c2cccc(c2)C(=O)NCCCN(C)CCCNc2cccc3c2C(=O)c2cccc(c2C3=O)NCCC1,SAS,"RNA-Seq, refers to: DNAJB4 mRNA",,"1 µM, 6 h",relative to: untreated cells,log2 fold change,0.952
Nc1ncc(-c2cc(-c3cnn(CC(F)(F)F)c3)ncc2F)nc1C(=O)NC1CNCC(F)C1 (stereo not drawn),PFTK1,KINOMEscan,,1 µM,relative to: DMSO control,remaining binding,98%
O=C(N/N=C/c1ccc(C[n+]2ccccc2)cc1)c1cc(C(=O)N/N=C/c2ccc(C[n+]3ccccc3)cc2)ncn1,MYC parallel G4 DNA,FRET melting,,"1 µM, DNA 0.2 µM",,ΔTm,2.3 ± 0.3 °C
Cc1ncsc1-c1ccc(C(C)NC(=O)C2CC(O)CN2C(=O)C(NC(=O)CCCCCCCCCCN2CCCC(Nc3ncc(Cl)c(Nc4ccccc4S(=O)(=O)C(C)C)n3)C2)C(C)(C)C)cc1 (stereo not drawn),22Rv1,"RNA-seq, refers to: ZNF485 mRNA",,concentration not given,relative to: DMSO,log2 fold change,-2.2
O=C(N/N=C/c1ccc(C[n+]2ccccc2)cc1)c1ccc2ccc(C(=O)N/N=C/c3ccc(C[n+]4ccccc4)cc3)nc2n1,hp2 hairpin duplex DNA,FRET melting,,1 µM,,ΔTm,0.5 ± 0.2 °C
CNS(=O)(=O)Nc1nccc(Cc2c(C)c3ccc(Oc4ncccc4F)cc3oc2=O)c1F,Maver1,cell viability,,7 days,,IC50,> 1 µM
O=C(NN1C(=O)c2ccccc2NC1c1ccc([N+](=O)[O-])o1)c1ccc([N+](=O)[O-])cc1 (stereo not drawn),Mus musculus,"gene silencing, high-content imaging",LDR reporter GFP cells,"retest, mean of two runs",,EC50,39.8 µM
O=C(N/N=C/c1cc[n+](CC2CC2)c2ccccc12)c1ccc2ccc(C(=O)N/N=C/c3cc[n+](CC4CC4)c4ccccc34)nc2n1,hp2 hairpin duplex DNA,FRET melting,,"1 µM, added: ds26 10 µM",,ΔTm,0.8 ± 0.2 °C

# Repeated from above:
Compound,tested on,test,test system,setting,scale,quantity,value
O=C(N/N=C/c1ccc(C[n+]2ccccc2)cc1)c1cc(C(=O)N/N=C/c2ccc(C[n+]3ccccc3)cc2)ncn1,MYC parallel G4 DNA,FRET melting,,"1 µM, DNA 0.2 µM",,ΔTm,2.3 ± 0.3 °C
O=C(N/N=C/c1cc[n+](CC2CC2)c2ccccc12)c1ccc2ccc(C(=O)N/N=C/c3cc[n+](CC4CC4)c4ccccc34)nc2n1,hp2 hairpin duplex DNA,FRET melting,,"1 µM, added: ds26 10 µM",,ΔTm,0.8 ± 0.2 °C
